Published values of several laboratories.
Every numbered part comes from another study and shows a few of its results, in no order. Several values in a cell are separate wells, animals, samples, runs or records. Changes are numbered by the printed parent chain.

Block 1
Target: HLA class I histocompatibility antigen, A alpha chain, allele A*25:01 (Homo sapiens, UniProt P04439)
Observed: peptide-MHC binding
Molecule type: peptide
Tested at: concentration not given
Quantity: binding
AILAGEHKC: inactive
WTLAKPDFV: inactive
QAFEAGIDF: inactive
KPKHLYVSM: inactive
KQGDVFYTA: inactive
TLPGCLIIL: inactive
TVYGLGADV: inactive
GIVCYNEEV: inactive

Block 2
Target: UBE2A UBC core domain (UniProt P49459)
Sequence of UniProt P49459 (whole entry, looked up): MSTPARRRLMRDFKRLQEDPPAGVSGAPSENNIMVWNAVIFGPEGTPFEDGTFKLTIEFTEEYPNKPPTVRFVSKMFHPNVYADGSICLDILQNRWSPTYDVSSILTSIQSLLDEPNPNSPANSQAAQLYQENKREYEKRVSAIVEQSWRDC
Technique: yeast two-hybrid
Sample: yeast
Notes: mostly zero background
Baseline: not given
Direction: higher = stronger interaction
Quantity: lacZ reporter activity
B1: RNF32 RING domain (UniProt Q9H0A6); chain VQALRRETHECSICLAPLSAAGGQRVGAGRRSREMALLSCSHVFHHACLLALEEFSVGDRPPFHACPLCRSCYQKKILEC
B2: RNF11 RING domain (UniProt Q9Y3C5); chain RDGSEKKIRECVICMMDFVYGDPIRFLPCMHIYHLDCIDDWLMRSFTCPSCMEPVDAALLSS
B3: SHPRH RING domain (UniProt Q149N8); chain KTSGGVNPEPCPICARQLGKQWAVLTCGHCFCNECISIIIEQYSVGSHRSSIKCAICRQTTSHKEISY
B4: MDM2 RING domain (UniProt Q00987); chain TQDKEESVESSLPLNAIEPCVICQGRPKNGCIVHGKTGHLMACFTCAKKLKKRNKPCPVCRQPIQMIVLTYFP
B5: RNF10 RING domain (UniProt Q8N5U6); chain VRICSHEVPSCPICLYPPTAAKITRCGHIFCWACILHYLSLSEKTWSKCPICYSSVHKKDLKS
EDVLSKDAGECAICLEELQQGDTIARLPCLCIYHKGCIDEWFEVNRSCPEHPSD (ZNRF2 RING domain (UniProt Q8NHG8)): 0
PLRRLQEEKLCKICMDRHIAVVFIPCGHLVTCKQCAEAVDRCPMCSAVIDFKQRVF (BIRC8 RING domain (UniProt Q96P09)): 0
B1 (RNF32 RING domain): 0
B2 (RNF11 RING domain): 0
B3 (SHPRH RING domain): 0
B4 (MDM2 RING domain): 0
B5 (RNF10 RING domain): 0
FLSKVEETFQCICCQELVFRPITTVCQHNVCKDCLDRSFRAQVFSCPACRYDLGRSYAMQ (UHRF1 RING domain (UniProt Q96T88)): 0

Further values, each from its own experiment
CCNA1: CCNA1, cyclin fold, Cln2 fusion (human)
P1: viral docking peptide; YKVKRRLVFGADD; partner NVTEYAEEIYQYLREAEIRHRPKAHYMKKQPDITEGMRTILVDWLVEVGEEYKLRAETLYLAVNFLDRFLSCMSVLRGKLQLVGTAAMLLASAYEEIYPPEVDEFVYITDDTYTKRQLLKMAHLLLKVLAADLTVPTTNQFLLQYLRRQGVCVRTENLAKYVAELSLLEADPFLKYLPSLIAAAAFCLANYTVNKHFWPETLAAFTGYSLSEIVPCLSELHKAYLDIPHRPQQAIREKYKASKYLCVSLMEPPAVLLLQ
P2: viral docking peptide; KGVKRKLFAEDSS; partner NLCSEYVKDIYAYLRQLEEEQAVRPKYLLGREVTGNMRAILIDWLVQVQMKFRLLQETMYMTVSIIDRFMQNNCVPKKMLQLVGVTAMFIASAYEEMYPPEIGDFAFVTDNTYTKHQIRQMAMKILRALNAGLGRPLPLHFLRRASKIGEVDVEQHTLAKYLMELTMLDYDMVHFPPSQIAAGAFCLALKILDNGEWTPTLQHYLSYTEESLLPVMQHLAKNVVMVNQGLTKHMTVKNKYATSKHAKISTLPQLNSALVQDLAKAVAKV
P1 R6G  normalised enrichment score (CCNA1; yeast growth competition, sequencing; yeast; strong parent motif; baseline: not given, higher = stronger binding): 0.186
CC(C)S(=O)(=O)c1ccc2nccc(Nc3ccc4sc(C5CCCC5)nc4c3)c2c1.Cl  survival (L929 RIPK3-/- reexpressing RIPK3 K51A/R69H; CCK-8; 1.563 µM): 99.6% and 92.6% and 88.2% and 82.5%
P2 K6V  normalised enrichment score (CCNB1, cyclin fold, Cln2 fusion (human); yeast growth competition, sequencing; yeast; strong parent motif; baseline: not given, higher = stronger binding): 0.976
YKVKRRLVFGADD  binding score (Saccharomyces cerevisiae; peptide binding, yeast competitive growth sequencing; peptide, cyclin F-Cln2 fusion; concentration not given, RxL motif peptides; direction not given): 10
P1 R5N  normalised enrichment score (CCNA1; yeast growth competition, sequencing; yeast; strong parent motif; baseline: not given, higher = stronger binding): -0.363
